Results collected from several papers.
Lines come from different studies, so protocols differ. Several values in a cell are separate wells, animals, samples, runs or records.
Rab GDP dissociation inhibitor beta with Rab1A: Rab GDP dissociation inhibitor beta, with Rab1A (Homo sapiens, UniProt P50395)
Voltage-dependent P/Q-type calcium channel subunit alpha-1A: Voltage-dependent P/Q-type calcium channel subunit alpha-1A (Homo sapiens, UniProt O00555)
UCHL1: Ubiquitin carboxyl-terminal hydrolase isozyme L1 (UCHL1, Homo sapiens, UniProt P09936)

COc1cc(C(=O)NS(=O)(=O)c2ccccc2C)ccc1Cc1cn(C)c2ccc(NC(=O)OC3CCCC3)cc12  inhibition (LRRC8A/LRRC8C (Homo sapiens, UniProt Q8IWT6+Q8TDW0); ion current, whole-cell patch clamp; HCT116 LRRC8-/- with LRRC8A/LRRC8C heteromer; 100 µM, at +100 mV): 97.5% and 71.7% and 97.2% and 95.8% and 62.2% and 59.6%
Cc1cc(C)cc(COc2cc3c(cc2OCc2cc(C)cc(C)c2)[C@H]2C[C@](O)(Cc4cn(Cc5ccc(-c6ccccc6)cc5)nn4)C[C@H](C)N2CC3)c1  inhibition (Rab GDP dissociation inhibitor beta with Rab1A; GDI2-Rab1A interaction, NanoLuc complementation; 6.25 µM): 91.8%
CCOc1cc(CN2CCCC(CNC(=O)c3ccc(F)cc3)C2)ccc1OC (stereo not shown)  inhibition (Trypanosoma cruzi; reporter translation, Renilla luciferase mRNA translation; cell-free extract; 40 µM; relative to: DMSO): 3.4%
CNCCCC12CCC(c3ccccc31)c1ccccc12  inhibition (Voltage-dependent P/Q-type calcium channel subunit alpha-1A; ion current, antagonist; HEK293; 3 µM): 29%
C/C=C/C(=O)Nc1ccc(Cn2cc(C[C@@]3(O)C[C@@H]4c5cc(OCc6cc(C)cc(C)c6)c(OCc6cc(C)cc(C)c6)cc5CCN4[C@@H](C)C3)nn2)cc1  inhibition (Rab GDP dissociation inhibitor beta with Rab1A; GDI2-Rab1A interaction, NanoLuc complementation; 6.25 µM): 94.9%
CC[C@@H]1[C@H](F)C(=O)N[C@@H]1COc1nccc2cc(C(N)=O)c(OC)cc12  inhibition (LATS2 (Homo sapiens, UniProt Q9NRM7); ATP-site probe binding, ActivX profiling; THP-1 cell lysate; 0.2 mM, Lys2 site): 2.1%
CCc1nc2ccc(Cl)cn2c1C(=O)NCc1ccc(N2CCC(c3ccc(OC(F)(F)F)cc3)CC2)cc1  inhibition (Cytochrome b, in bc1 complex (COB, Candida albicans, UniProt P0C8L0); cytochrome c reduction; 10 and 1 µM): no inhibition
CS(=O)(=O)Nc1cccc(-c2csc(NC(=O)CSc3nc4nccnc4c(=O)n3CCc3ccccc3)n2)c1  inhibition (Phosphatidylinositol 4,5-bisphosphate 3-kinase catalytic subunit alpha isoform, with p85 alpha (PIK3CA, Homo sapiens, UniProt P42336, E545K); 10 µM, E545K with PIK3R1): 2%
CC(C)COc1ccc(CNC(=O)N(Cc2ccc(F)cc2)C2CCN(C)CC2)cc1  inhibition (Voltage-dependent P/Q-type calcium channel subunit alpha-1A; ion current, antagonist; HEK293; 10 µM): 89%
[2H]c1cc(C)c(NC(=O)c2cnc(Nc3cc(N4CCC(O)CC4)nc(C)n3)s2)c(Cl)c1  inhibition (PDGFRA (Homo sapiens, UniProt P16234); 0.001 µM): < 50%
O=C(O)C(O)C(O)C(=O)O.c1cnc2cc3c(cc2n1)[C@@H]1CNC[C@H]3C1  inhibition (Voltage-dependent P/Q-type calcium channel subunit alpha-1A; ion current, antagonist; 3 µM): -5%
CN(C(=O)n1cnc(-c2ccc[n+]([O-])c2)c1)C1CCCCC1  inhibition (TACR1 (Homo sapiens, UniProt P25103); 10 µM): 11.4%
Cn1c(=O)c2[nH]cnc2n(C)c1=O  inhibition (Voltage-dependent P/Q-type calcium channel subunit alpha-1A; ion current, antagonist; HEK293; 10 µM): -3%
N#Cc1c(Br)nc(-c2cccc(Cl)c2)c(C#N)c1N  labelling (UCHL1; covalent, intact protein LC-MS; 12.5 µM): 9.91%
Cc1nn(-c2nc3ccccc3s2)c(O)c1C(c1ccccc1C(=O)O)c1c(C)nn(-c2nc3ccccc3s2)c1O  inhibition (Cyclic GMP-AMP synthase, catalytic domain; with DNA (CGAS, Homo sapiens, UniProt Q8N884); cGAS phase separation, inhibitor; 0.625 µM): 85.2%
CCN1/C(=C/C(C)=O)Sc2ccc(F)cc21  inhibition (ADRA2C (Homo sapiens, UniProt P18825); TGFα shedding, inhibitor; concentration not given): no inhibition
CN(C)c1oc(-c2ccc(S(=O)(=O)N(C)C)cc2)nc1C#N  labelling (UCHL1; covalent, intact protein LC-MS; 12.5 µM): 11.9%
Cc1cc(-c2ccnc3[nH]cc(F)c23)cc(F)c1[C@@]1(O)[C@H](C)CN(C2CCS(=O)(=O)CC2)C[C@@H]1C  inhibition (STK38L (Homo sapiens, UniProt Q9Y2H1); ATP probe binding, KiNativ, refers to: Lys2 site; HEK293T cell lysate; 1 µM): 10.6%
CC(=O)O[C@H]1C(=O)[C@@]2(C)[C@H]([C@H](OC(=O)c3ccccc3)[C@]3(O)C[C@H](OC(=O)[C@H](O)[C@@H](NC(=O)c4ccccc4)c4ccccc4)C(C)=C1C3(C)C)[C@]1(OC(C)=O)CO[C@@H]1C[C@@H]2O  inhibition (Voltage-dependent P/Q-type calcium channel subunit alpha-1A; ion current, antagonist; HEK293; 3 µM): 11%

Repeated from above:
CC(C)COc1ccc(CNC(=O)N(Cc2ccc(F)cc2)C2CCN(C)CC2)cc1  inhibition (Voltage-dependent P/Q-type calcium channel subunit alpha-1A; ion current, antagonist; HEK293; 10 µM): 89%
Cc1cc(C)cc(COc2cc3c(cc2OCc2cc(C)cc(C)c2)[C@H]2C[C@](O)(Cc4cn(Cc5ccc(-c6ccccc6)cc5)nn4)C[C@H](C)N2CC3)c1  inhibition (Rab GDP dissociation inhibitor beta with Rab1A; GDI2-Rab1A interaction, NanoLuc complementation; 6.25 µM): 91.8%
C/C=C/C(=O)Nc1ccc(Cn2cc(C[C@@]3(O)C[C@@H]4c5cc(OCc6cc(C)cc(C)c6)c(OCc6cc(C)cc(C)c6)cc5CCN4[C@@H](C)C3)nn2)cc1  inhibition (Rab GDP dissociation inhibitor beta with Rab1A; GDI2-Rab1A interaction, NanoLuc complementation; 6.25 µM): 94.9%
